# Assay results of several laboratories.
# “And” joins repeats or separate records; there may be more than shown. Numbers after ± are the reported error.
SMILES,tested on,assay,setting,scale,endpoint,result
CC(C)c1ccc(N(C)c2ccc3c(c2)OCC[C@H]3CNc2cnccc2C(=O)O)cc1,NUGC-3,"cell viability, CellTiter-Glo",7 days,,IC50,7.72 nM
C[C@@H]1CC[C@@H]([C@@](O)(CNCc2ccc(F)cc2)COCc2ccccc2)[C@H](OCc2ccccc2)C1,HeLa,"cell growth or viability, MTT","10 µM, 72 h",,inhibition,97.7%
CCN(CC)CC(=O)Nc1cccc(-n2cc(-c3ccc4ccc(-c5cn(-c6cccc(NC(=O)CN(CC)CC)c6)nn5)cc4c3)nn2)c1,RCC4,"PCR angiogenesis array, refers to: ID1","5 x IC50, 4 h, normoxia",baseline: untreated,fold regulation,1.33
CN(C12CCCC(C)(CCC3C1CC3(C)C)C2)S(=O)(=O)c1ccccc1 (stereo not drawn),HT-29,"cell growth or viability, CCK-8",50 µM,,inhibition,47%
CCc1c(-c2ccc3[nH]ncc3c2)cnc(N)c1-c1ccc(O)cc1,"CHP-212 resistant sublines, USP7 V517F heterozygous",,3.125 µM,,viability,114%
COc1ccccc1-c1ccncc1C(=O)Nc1nnc(OCc2ccc(Cl)cc2)s1,Brca1 Δ11/Δ11 MEFs sgGFP,,20 µM,,colony count,10 and 5 and 7
Cn1ncc2cc(-c3cncc(Cl)c3N3CCC4(CCNC4=O)CC3)ccc21,LS174T,"gene expression, microarray, refers to: DUSP6 mRNA","concentration not given, 24 h",baseline: untreated cells,log2 fold change,2.1
C[n+]1cccc2cc(/C=N/NC(=O)c3cccc(C(=O)N/N=C/c4ccc5c(ccc[n+]5C)c4)n3)ccc21,22CTA telomeric G4-DNA antiparallel,FRET melting,"1 µM, K10 buffer, DNA 0.2 µM",,ΔTm,15.2 ± 0.3 °C
CC1(C)CC(=O)C2=C(C1)Oc1ccc3ccccc3c1C2c1c[nH]c2ccccc12 (stereo not drawn),3T3-L1 mature adipocytes,"lipolysis, Oil Red O staining",IC20,,mean lipid content,0.622 OD492
CNS(=O)(=O)Nc1nccc(Cc2c(C)c3ccc(Oc4ncccc4F)cc3oc2=O)c1F,IMR-32,cell viability,7 days,,IC50,41.8 nM
CC(=O)N1C[C@H](O)C[C@H]1C(=O)N[C@H](C(=O)N[C@@H](CO)C(=O)N[C@@H](CC(=O)O)C(=O)COC(=O)c1c(C)cccc1C)C(C)C,"THP-1 cells, LPS-primed","pyroptosis, LDH release","25 µM, LPS 1 µg/mL, 4 h, added: nigericin 5 µM, 2 h",,cell lysis,68.5% and 48.8%
CC(=O)Oc1ccccc1C(=O)[Se]CC(=O)Nc1cccc(C(F)(F)F)c1,NCI60 NSCLC subpanel mean,cell growth,,,TGI,4.39 µM
Cc1ncsc1-c1ccc(C(C)NC(=O)C2CC(O)CN2C(=O)C(NC(=O)CCCCCCCCCCN2CCCC(Nc3ncc(Cl)c(Nc4ccccc4S(=O)(=O)C(C)C)n3)C2)C(C)(C)C)cc1 (stereo not drawn),22Rv1,"RNA-seq, refers to: MYRIP mRNA",concentration not given,baseline: DMSO,log2 fold change,-1.02
COc1ccc(C2CC(=O)c3c(cc(O)c(CC=C(C)C)c3O)O2)cc1 (stereo not drawn),HeLa,"cell growth or viability, MTT","25 µM, 48 h",,inhibition,28.1%
O=S(=O)(N[C@H]1CCO[C@@H](C2c3ccccc3CCc3ccccc32)C1)c1ccc(OC(F)(F)F)cc1,D341,CellTiter,"concentration not given, 72 h",,cell proliferation,decreased
COC1CCN(C(=O)/C=C/c2nn(Cc3cccc(C(F)(F)F)c3)c3nc(NCc4ccccc4)ncc23)CC1,OE33,"cell growth or viability, resazurin",5 days,,EC50,> 30 µM
CN1CCCNC(=O)c2cccc(c2)C(=O)NCCCN(C)CCCNc2cccc3c2C(=O)c2cccc(c2C3=O)NCCC1,SAS,"RNA-Seq, refers to: CCDC39 mRNA","1 µM, 6 h",baseline: untreated cells,log2 fold change,-1.86
Nc1ncc(-c2cc(-c3cnn(CC(F)(F)F)c3)ncc2F)nc1C(=O)NC1CNCC(F)C1 (stereo not drawn),ADCK4,KINOMEscan,1 µM,baseline: DMSO control,remaining binding,94%
O=C(N/N=C/c1ccc(C[n+]2ccccc2)cc1)c1ccc2ccc(C(=O)N/N=C/c3ccc(C[n+]4ccccc4)cc3)nc2n1,22CTA telomeric G4-DNA antiparallel,FRET melting,"1 µM, K10 buffer, DNA 0.2 µM, added: ds26 10 µM",,ΔTm,13.9 ± 0.2 °C
CCC(=CCc1c(O)cc2c(c1O)C(=O)CC(c1cccc(O)c1OC)O2)CC (stereo not drawn),HeLa,"cell growth or viability, MTT","6.25 µM, 48 h",,inhibition,12.3%
CC12CCCC(NS(=O)(=O)c3ccccn3)(C1)C1CC(C)(C)C1CC2 (stereo not drawn),HT-29,"cell growth or viability, CCK-8",50 µM,,inhibition,77.2%

# Excerpt of the above:
SMILES,tested on,assay,setting,scale,endpoint,result
CCc1c(-c2ccc3[nH]ncc3c2)cnc(N)c1-c1ccc(O)cc1,"CHP-212 resistant sublines, USP7 V517F heterozygous",,3.125 µM,,viability,114%
CC(C)c1ccc(N(C)c2ccc3c(c2)OCC[C@H]3CNc2cnccc2C(=O)O)cc1,NUGC-3,"cell viability, CellTiter-Glo",7 days,,IC50,7.72 nM
CCC(=CCc1c(O)cc2c(c1O)C(=O)CC(c1cccc(O)c1OC)O2)CC (stereo not drawn),HeLa,"cell growth or viability, MTT","6.25 µM, 48 h",,inhibition,12.3%
